Results from different studies.
Each line is one published result; not all experiments were run side by side. Values joined by “and” are separate records of one study, mostly repeats; a detail may differ.
Target: Leukocyte tyrosine kinase receptor (LTK, Homo sapiens, UniProt P29376)

For `C=CC(=O)N1Cc2nc(-c3cc(-c4cc(Cl)cnc4Cl)c(F)cc3F)n(-c3ccncn3)c2C1`, the inhibition was 6.1% (cell-free assay; 1 µM).
`C=CC(=O)Nc1cccc(-c2cnc3[nH]cc(C(=O)NC(C)(C)C)c3n2)c1` has an inhibition of 3% and 4% (kinase activity; 0.1 µM).
`Cc1cccc(O[C@H]2CCC[C@@H](C(C)CNCc3ccncc3)C2)c1` (relative stereo) has an inhibition of -1% (cell-free assay; 1 µM).
`C=CC(=O)N1CCCC(n2c(=O)c3ncccc3n(Cc3ccc(Oc4ccccc4)cc3)c2=O)C1` (centres unmarked) gave a remaining binding of 100% (cell-free assay, competition with immobilised ligand; 1 µM).
For `CN1CCN(Cc2ccc(-c3ccc(CO[C@H]4CCC[C@@H]4NC(=O)c4cc(-c5cnn(C)c5)cnc4N)cc3)cc2)CC1`, the inhibition was -1% (enzyme activity, inhibitor; 0.1 µM).
`Nc1ncc(-c2cc(-c3cnn(CC(F)(F)F)c3)ncc2F)nc1C(=O)NC1CNCC(F)C1` (centres unmarked) gave a remaining activity of 90.3% (enzyme activity; 1 µM; baseline: DMSO control).
Under “activity vs control”, `O=C(Cc1ccc(OCc2ccccc2)cc1)NC1(C(=O)O)CCN(C(=O)c2ccc(-c3cccc(Cl)c3)cc2)CC1` is recorded as 89% (enzyme activity, inhibitor; 10 µM).
The inhibition of `NC(=O)C[C@H]1CCc2sc3ncnc(O[C@H]4CC[C@H](N5CCOCC5)CC4)c3c21` is reported as 0% (enzyme activity, inhibitor; 10 µM).
`CN1CC[C@@H](COc2cnc(C#N)cc2-c2ccn3nc(NC(=O)C4CC4)cc3c2)C1` gave an inhibition of 4% (enzyme activity, inhibitor; 1 µM).
With `C=CC(=O)N1CCc2ccc(-n3c(=O)ccc4cnc5ccc(-c6cnn(C)c6)cc5c43)cc21` the remaining binding was 100% (KINOMEscan; 1 µM; baseline: DMSO control).
`Cc1cnc2nc1Nc1cccc(c1)COC/C=C/COCc1cc(ccc1OCCN1CCOCC1)N2` has a remaining binding of 100% (binding; 0.1 µM).
The remaining binding of `CNC(=O)C1CCN(c2cc(C)c(F)cc2NC(=O)c2ccc(-c3cc(O)ccc3C)c(C)c2)CC1` is reported as 100% (binding, competition with immobilised ligand; 1 µM).
For `C[C@H]1CN(C(=O)c2cn(-c3ccnc(N)n3)c3cc(C#CC4(O)CCCCC4)ccc23)CCN1`, the inhibition was 9% (enzyme activity, inhibitor, FRET; 1 µM).
`CC(C)=CC1OC(C)(C)C2C=C3C(=O)C(Cl)=CC(O)C3C3C(O)C4OC4C(=O)C132` (centres unmarked) has a remaining binding of 94% (cell-free assay, competition with immobilised ligand; 10 µM).

Some of these lines once more:
`Cc1cccc(O[C@H]2CCC[C@@H](C(C)CNCc3ccncc3)C2)c1` (relative stereo) has an inhibition of -1% (cell-free assay; 1 µM).
`Cc1cnc2nc1Nc1cccc(c1)COC/C=C/COCc1cc(ccc1OCCN1CCOCC1)N2` has a remaining binding of 100% (binding; 0.1 µM).
